Measurements gathered from unrelated publications.
Each numbered part is a random draw from the data of one study; scales do not carry over between parts.

Study 1
Target: RING finger protein unkempt homolog, zinc fingers 1-6, GST-SBP tag (UNK, Homo sapiens, UniProt Q9C0B0, residues 30-357)
Chain of UniProt Q9C0B0 (30-357, looked up): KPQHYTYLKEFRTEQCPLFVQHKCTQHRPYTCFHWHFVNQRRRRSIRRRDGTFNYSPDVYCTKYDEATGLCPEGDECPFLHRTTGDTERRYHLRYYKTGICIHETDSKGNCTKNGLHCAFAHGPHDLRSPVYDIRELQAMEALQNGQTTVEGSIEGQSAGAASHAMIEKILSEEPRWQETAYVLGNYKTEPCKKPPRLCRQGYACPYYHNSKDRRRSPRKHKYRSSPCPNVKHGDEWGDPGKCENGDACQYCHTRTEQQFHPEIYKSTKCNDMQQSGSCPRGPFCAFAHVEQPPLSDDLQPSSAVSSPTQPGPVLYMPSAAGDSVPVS
Method: RNA Bind-n-Seq
Molecule type: RNA
Medium: in vitro
Tested at: not given
Setting: RNA with constant flanks, human and mouse sites, ends assumed
Baseline: input RNA pool
Direction: higher = stronger binding
Strand | bound/input enrichment
GGGAGUUCUACAGUCCGACGAUCCUUGAUUUGGUCCAUGGGAAACCACGAGACAACAAGCAAGCAGGGGUGUUUGAACCAACCAUAGUUAAAGUGAAGAGCCUGAAGUUCGCAACAGAGGCUGCAAUCACCAUCCUUCGGAUUCAACAGAGGAUUGAGCAUCA | 0.514 ratio
GGGAGUUCUACAGUCCGACGAUCGUUGAUGAAGAAUAUGAGUUAUAUCAAGAUCCCUCACCAUCCAUGGAGUUGUAUCCCUUGUCGCACAUUCAAGAGGCCACUCCUGUGCCCUCUGUGAAUGAACUUCACUUUGGUACACAGCAACAGAGGAUUGAGCAUCA | 0.124 ratio
GGGAGUUCUACAGUCCGACGAUCGUGUUCGAGGAGAUGAACGUGGAUCUGCAGGAGGAGCUGCCAUCCCUGUGGAACAGCCGUGUAGGUUUCUAUGUCAACACGUUCCAGAGCAUCGCGGGUCUGGAGGAAAACUUCCAUAAACAACAGAGGAUUGAGCAUCA | 0.119 ratio
GGGAGUUCUACAGUCCGACGAUCGAAAUGAAGUACUACAUAGUGCAUUUGAAACGCCACUUUAUGUUUCGAAACCAUCUCUGUUUAGUGUUUGAAAUGCUGUCCUAUAAUCUCUAUGAUUUGUUGAGAAACACCAACUUCCGACAACAGAGGAUUGAGCAUCA | 0.296 ratio

Study 2
Target: Max dimerization protein 1, bHLH-zipper, MAX partner unstated (MXD1, Homo sapiens, UniProt Q05195, residues 56-136)
Method: protein-binding microarray
Molecule type: double-stranded DNA, one strand shown
Medium: in vitro
Tested at: not given
Setting: k-mer, scored over probes, only values ≥0.25
Direction: higher = stronger binding
Residues (chain): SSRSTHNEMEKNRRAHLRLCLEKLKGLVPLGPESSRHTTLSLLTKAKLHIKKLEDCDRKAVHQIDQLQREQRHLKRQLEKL
Strand | E-score
GGTAAGCA | 0.255
ATGGGGAG | 0.322
ACATGTGG | 0.466
AGCATGGA | 0.409

Study 3
Target: RNA binding protein fox-1 homolog 2, RRM domain, GST-SBP tag (RBFOX2, Homo sapiens, UniProt O43251-10, residues 100-194)
Method: RNA Bind-n-Seq
Molecule type: RNA
Medium: in vitro
Tested at: 365 nM
Setting: natural RNA segment, single round, ends assumed
Baseline: no-protein control
Direction: higher = stronger binding
Construct (chain): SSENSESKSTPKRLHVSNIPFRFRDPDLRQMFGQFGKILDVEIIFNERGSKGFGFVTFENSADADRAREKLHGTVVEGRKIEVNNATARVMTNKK
Strand | RBNS enrichment (R)
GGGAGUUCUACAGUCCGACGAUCGUCUUGAGAGCACAGACUAACACUUACCAAAUGAGGGAACUCUUGGCCCAUACUAAGGCUCUUCUGGGCUCCAGCACUCUUAAGUUAUUUUAAGAAUUCUCACUUGGCCUUGGAAUUCUCGGGUGCCAA | 0.154
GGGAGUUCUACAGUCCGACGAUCUGCCUGCUUGAAGGAACAGUGCUGUUCUGGAGCUGCUGUUCCAACAGACAGGGCCUAGCUUUCAUUUGACACACAGACUACAGCCAGAAGCCCAUGGAGCAGGGAUGUCAUGGAAUUCUCGGGUGCCAA | 0.412
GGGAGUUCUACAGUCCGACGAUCACCUACUAGUGGUCCCUGGCAGCUGUGGGCAAGGCCUGGGUAGUCAGACUGUUAACACCACAGUCCUUAGCAGUGGUCAAUGUCCAGUUCCCCCGCACAGGUCCUGCUUCUGGAAUUCUCGGGUGCCAA | 0.318
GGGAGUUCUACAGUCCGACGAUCCCUUGGUCACUGUGAUUUCUGUUUUGUUUAAAAAAUUCUUACAAACCUCAGGAAAACUGUGCCCUCCGCCGGCUACCUUAGCUUAGCGUGUCAGCGGGCGCCACAGCGGAUGGAAUUCUCGGGUGCCAA | 0.284
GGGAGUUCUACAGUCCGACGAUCGCGAAAGCACCACCCUCGAGCUGCCUUGCCUGUCAGCUGCUCCUUCGAGGCCUGUGUCUGGUGGGAGACAAGGCUGUGUGUCUCUGUGUGUGUAAACAAACGUGCACGUGUGGAAUUCUCGGGUGCCAA | 0.371

Further values, each from its own experiment
Molecule | target | assay | test system | conditions | how to read | measurement | value
PhoQ, residues 284 288 289 292 302 303 AMDMFI | PhoP, residues 12 14 15 18 19 SMASL (Escherichia coli, UniProt P23836) | Sort-seq, refers to: YFP reporter | E. coli | PhoQ-PhoP variant library, with: 10 µM Mg2+ | baseline: high Mg2+ state, higher = stronger signaling | fold induction | 0.464

Some of these lines once more (study 3):
Strand | RBNS enrichment (R)
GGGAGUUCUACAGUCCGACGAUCACCUACUAGUGGUCCCUGGCAGCUGUGGGCAAGGCCUGGGUAGUCAGACUGUUAACACCACAGUCCUUAGCAGUGGUCAAUGUCCAGUUCCCCCGCACAGGUCCUGCUUCUGGAAUUCUCGGGUGCCAA | 0.318
